Experimental data collected from several papers.
Every numbered part comes from another study and shows a few of its results, in no order. ± marks the error that the study gave.
Chain of UniProt O60656 (whole entry, looked up): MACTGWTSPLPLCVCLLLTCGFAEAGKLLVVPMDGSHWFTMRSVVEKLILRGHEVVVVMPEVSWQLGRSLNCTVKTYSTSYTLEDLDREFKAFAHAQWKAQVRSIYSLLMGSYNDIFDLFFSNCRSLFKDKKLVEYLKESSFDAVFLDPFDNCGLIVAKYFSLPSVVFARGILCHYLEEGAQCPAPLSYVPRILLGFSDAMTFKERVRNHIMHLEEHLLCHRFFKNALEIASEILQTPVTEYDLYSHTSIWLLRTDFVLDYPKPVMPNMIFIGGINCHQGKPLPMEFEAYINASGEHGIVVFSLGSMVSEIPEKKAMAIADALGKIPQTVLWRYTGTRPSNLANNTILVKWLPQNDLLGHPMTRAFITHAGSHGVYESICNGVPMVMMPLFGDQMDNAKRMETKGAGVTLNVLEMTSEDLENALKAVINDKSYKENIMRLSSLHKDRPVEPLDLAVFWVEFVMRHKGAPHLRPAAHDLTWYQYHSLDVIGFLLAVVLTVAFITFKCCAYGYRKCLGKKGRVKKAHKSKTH

Sample 1
Form: peptide
Sample: human polyclonal IgM RF LOP
Tested at: concentration not given
Notes: 5 µg/mL mAb II-481 coated
Added: RF at 50% max binding concentration
Quantity: inhibition
LHNHYT: 0%
SQSVLYS: 18%
LIYWAST: 8%
YGIGVGW: 12%
SGVPDRF: 25%

Other studies, line by line
B1: α-TTP I202D/M209D; sequence looked up; chain MAEARSQPSAGPQLNALPDHSPLLQPGLAALRRRAREAGVPLAPLPLTDSFLLRFLRARDFDLDLAWRLLKNYYKWRAECPEISADLHPRSIIGLLKAGYHGVLRSRDPTGSKVLIYRIAHWDPKVFTAYDVFRVSLITSELIVQEVETQRNGIKAIFDLEGWQFSHAFQITPSVAKKIAAVLTDSFPLKVRGIHLINEPVDFHAVFSDIKPFLTEKIKERIHMHGNNYKQSLLQHFPDILPLEYGGEEFSMEDICQEWTNFIMKSEDYLSSISESIQ
CARLSLSWRGLTLCPSK (68Ga-DOTA-labelled) — uptake (mouse VAP-1; ex vivo biodistribution; peptide, wild-type mouse, B16 melanoma xenograft, blood; 60 min, added: 500-fold excess unlabelled DOTA-peptide): 0.2 ± 0.02 SUV
GAGUUGAGUUGAGUUGAGUUGAGUUGAGUUGAGUUGAGUUGAGUUGAGUUGAGUU (ssRNA; single strand) — Kd (mtrB full length assumed T30N (Bacillus subtilis, UniProt P19466); filter binding; added: L-tryptophan 1 mM): 70 ± 7 nM
vimentin — Kd (binding, SPR (Biacore); immobilized peptide; rabbit mAb mixture analyte): 0.306 nM
UGT1A9 (Homo sapiens, UniProt O60656) — Km (COc1cc2c(=O)c(-c3ccccc3)coc2cc1O; steady-state kinetics; pH 7.4, 37 °C): 3.08 µM
B1 (α-TTP I202D/M209D) — Kd (binding, dual polarization interferometry; immobilized phospholipid bilayer; 20 °C): 4490 ± 2100 nM
